# Published values collected from several papers.
# A part holds a random share of what one study measured.

# Sample 1
# Target: Histone acetyltransferase KAT6A, winged helix 1, GST fusion (KAT6A, Homo sapiens, UniProt Q92794, residues 1-85)
# Technique: protein binding microarray
# Molecule type: double-stranded DNA, one strand shown
# Sample: in vitro
# Tested at: not given
# Setting: 8-mer, flanks averaged, mean of 2 arrays, mostly near background
# Reference: not given
# Direction: higher = stronger binding
# Residues (chain): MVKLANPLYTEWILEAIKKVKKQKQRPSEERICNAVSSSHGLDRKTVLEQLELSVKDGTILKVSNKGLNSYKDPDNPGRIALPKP
Oligonucleotide,E-score
AGATCGGG,0.0686
GTCCCTCA,-0.133
CTTTGCCC,-0.0877
CTAACAGA,-0.14
ACCTCTAT,-0.0655

# Sample 2
# Target: Sal-like protein 4, full length isoform A (SALL4, Homo sapiens, UniProt Q9UJQ4, residues 1-1053)
# Chain of UniProt Q9UJQ4 (whole entry, looked up): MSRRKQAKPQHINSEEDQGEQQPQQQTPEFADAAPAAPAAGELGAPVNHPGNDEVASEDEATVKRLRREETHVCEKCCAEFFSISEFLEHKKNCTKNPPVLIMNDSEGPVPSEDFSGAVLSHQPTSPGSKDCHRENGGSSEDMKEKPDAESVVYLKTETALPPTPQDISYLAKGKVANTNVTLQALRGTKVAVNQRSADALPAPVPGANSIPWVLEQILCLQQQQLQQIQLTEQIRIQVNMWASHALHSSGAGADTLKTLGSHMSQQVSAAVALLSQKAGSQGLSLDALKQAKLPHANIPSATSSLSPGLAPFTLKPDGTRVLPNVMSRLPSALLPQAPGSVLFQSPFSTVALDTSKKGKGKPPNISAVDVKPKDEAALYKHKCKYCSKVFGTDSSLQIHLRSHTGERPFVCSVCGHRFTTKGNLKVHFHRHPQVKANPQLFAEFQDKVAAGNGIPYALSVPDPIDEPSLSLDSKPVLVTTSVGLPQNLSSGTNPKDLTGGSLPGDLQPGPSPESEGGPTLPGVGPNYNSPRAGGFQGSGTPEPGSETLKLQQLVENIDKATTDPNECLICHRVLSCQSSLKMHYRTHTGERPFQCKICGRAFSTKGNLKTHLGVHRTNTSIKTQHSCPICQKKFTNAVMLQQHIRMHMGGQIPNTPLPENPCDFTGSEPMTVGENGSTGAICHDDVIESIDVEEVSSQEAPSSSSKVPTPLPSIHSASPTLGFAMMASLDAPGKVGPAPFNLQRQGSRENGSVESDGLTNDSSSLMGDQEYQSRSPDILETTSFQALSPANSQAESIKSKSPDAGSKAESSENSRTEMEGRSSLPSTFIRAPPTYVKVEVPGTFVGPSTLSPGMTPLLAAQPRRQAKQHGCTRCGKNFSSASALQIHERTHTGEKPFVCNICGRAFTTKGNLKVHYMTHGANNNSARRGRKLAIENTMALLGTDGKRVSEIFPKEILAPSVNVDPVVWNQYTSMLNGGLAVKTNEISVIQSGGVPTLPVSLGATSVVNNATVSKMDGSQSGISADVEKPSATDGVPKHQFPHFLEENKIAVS
# Technique: universal PBM
# Molecule type: double-stranded DNA, one strand shown
# Sample: in vitro
# Tested at: 600 nM
# Setting: 8-mer, flanks averaged, mean of replicates
# Direction: higher = stronger binding
Oligonucleotide,E-score
ATGGTGCC,-0.235
GTACAAAA,0.253
ACTCCTGC,0.0118
CTCTGCCA,-0.081

# Sample 3
# Target: Interferon regulatory factor 5, full length, phosphomimetic (IRF5, Homo sapiens, UniProt Q13568-2, residues 1-514, S451D/S453D/S456D/S462D)
# Technique: protein-binding microarray
# Molecule type: double-stranded DNA, one strand shown
# Sample: in vitro
# Tested at: 940 nM top
# Setting: 60-bp whole probe
# Added: salmon DNA 0.4 mg/ml
# Reference: random background probes
# Direction: higher = stronger binding
# All sequences stand within: GCCTAGCAC … GTCTTGATTCGCTTGACGCTGCTG
Oligonucleotide,fitted relative affinity
TTAGATATTAGTATCGATTAGTGCTAG,5.78 z-score
TTAGGACTGGACGCTGGGTTAGTGCTA,-0.5 z-score
GACGACCTGGGGTTTCGAGACGTGCTA,2 z-score
TTGGAACTGGGGTATCGATTAGTGCTA,2.71 z-score
GAATGATTACATATATGTTGGTGCTAG,0.0023 z-score

# Mixed results
Substance,target,test,test system,conditions,scale,endpoint,value
"PhoQ, residues 284 288 289 292 302 303 SSCLAV","PhoP, residues 12 14 15 18 19 LHSVW (Escherichia coli, UniProt P23836)","Sort-seq, refers to: YFP reporter",E. coli,"PhoQ-PhoP variant library, added: 10 µM Mg2+","reference: high Mg2+ state, higher = stronger signaling",fold induction,1.98

# Repeated from above (sample 2):
Oligonucleotide,E-score
ACTCCTGC,0.0118
CTCTGCCA,-0.081
